Experimental data collected from several papers.
Lines come from different studies, so protocols differ. ± gives the spread as reported.
Cell line: HepG2

| Structure (SMILES) | assay | system | conditions | how to read | measurement | value |
| --- | --- | --- | --- | --- | --- | --- |
| N.N.[Cl][Pt][Cl] | micronucleus formation | – | – | – | lowest effective concentration | 0.8 µM |
| CCC(C)(O)c1ccc(OCCc2cccc(F)c2)c(C(N)=O)c1 (centres unmarked) | – | galactose medium | 3 (unit not given) | – | CC50 | 53 µM |
| O=S(=O)(c1ccc(-c2ccc3c(Nc4ccc(OCc5ccccc5)c(Cl)c4)nncc3c2)cc1)N1CCOCC1 | cytotoxicity, MTT | – | 48 h | – | TC50 | > 15 µM |
| CC(C)(O)c1ccc(OCCc2cccc(F)c2)c(C(N)=O)c1 | – | – | 3 (unit not given) | reference: CC50 glucose over CC50 galactose | selectivity ratio | < 1 |
| CN1CCN(S(=O)(=O)c2ccc(-c3ccc4c(Nc5ccc(OCc6cccc(F)c6)c(Cl)c5)nncc4c3)cc2)CC1 | cytotoxicity, MTT | – | 48 h | – | TC50 | > 15 µM |
| Cc1ccc(OCCc2cccc(F)c2)c(C(N)=O)c1 | – | galactose medium | 3 (unit not given) | – | CC50 | 40 ± 6.5 µM |
| Cc1ccc(N)cc1N | – | – | maximum tested, 24 (unit not given) | – | micronucleated cells | 0.5% |
| C[C@H]1CCC/C=C/[C@@H]2C[C@H](O)C[C@H]2[C@H](O)/C=C/C(=O)O1 | – | – | 72 h | reference: HepG2 CC50 over EC50 | selectivity index | 987 |
| O=S(=O)(c1ccc(-c2ccc3nccc(Nc4ccnnc4)c3c2)cc1)N1CCOCC1 | cytotoxicity, MTT | – | 48 h | – | TC50 | > 20 µM |
| CN1CCN(S(=O)(=O)c2ccc(-c3ccc4ccnc(Nc5ccc(OCc6cccc(F)c6)c(Cl)c5)c4c3)cc2)CC1 | cytotoxicity, MTT | – | 48 h | – | TC50 | > 15 µM |
| CC(c1cncnc1)n1c(=S)[nH]c2ccc(Cl)cc2c1=O (centres unmarked) | – | – | 24 h | – | LD50 | > 100 µM |
| CCOCCOc1ccnc2ccc(-c3ccc(S(=O)(=O)N4CCOCC4)cc3)cc12 | cytotoxicity, MTT | – | 48 h | – | TC50 | > 20 µM |
| O=S(=O)(c1ccc(-c2ccc3cnnc(Nc4ccc(OCc5ccccc5)c(Cl)c4)c3c2)cc1)N1CCOCC1 | cytotoxicity, MTT | – | 48 h | – | TC50 | > 5.2 µM |
| Cc1cnc(OCCc2cccc(F)c2)c(C(N)=O)c1 | – | – | 3 (unit not given) | reference: CC50 glucose over CC50 galactose | selectivity ratio | < 1 |
| CN(C)N=O | – | – | maximum tested, 24 h | reference: vehicle | relative survival | 98% |
| CC(=O)c1ccc(OCCc2cccc(F)c2)c(C(N)=O)c1 | – | galactose medium | 3 (unit not given) | – | CC50 | > 100 µM |
| O=S(=O)(c1ccc(-c2ccc3nccc(Nc4ccc(OCc5cccc(F)c5)cc4)c3c2)cc1)N1CCOCC1 | cytotoxicity, MTT | – | 48 h | – | TC50 | > 5 µM |
| O=c1ccc2ccccc2o1 | cell membrane permeability | – | concentration not given, 6 h, necrosis and apoptosis panel | – | chance response | 0.17% |
| Fc1cccc(COc2ccc(Nc3cnnc4ccc(-c5cccc(N6CCOCC6)c5)cc34)cc2Cl)c1 | cytotoxicity, MTT | – | 48 h | – | TC50 | > 15 µM |
| NC(=O)c1cc(-c2ccsc2)ccc1OCCc1cccc(F)c1 | – | galactose medium | 3 (unit not given) | – | CC50 | 32 ± 19 µM |
| Cc1nnc(Nc2ccnc3ccc(-c4ccc(S(=O)(=O)N5CCOCC5)cc4)cc23)nc1C | cytotoxicity, MTT | – | 48 h | – | TC50 | > 20 µM |
| COc1ccc(CCOc2ccc(-c3ccsc3)cc2C(N)=O)cc1F | – | – | 3 (unit not given) | reference: CC50 glucose over CC50 galactose | selectivity ratio | 1 |
| CCn1nccc1Nc1ccnc2ccc(-c3ccc(S(=O)(=O)N4CCOCC4)cc3)cc12 | cytotoxicity, MTT | – | 48 h | – | TC50 | > 20 µM |
| COCCNC(=O)c1cc(-c2ccoc2)ccc1OCCc1cccc(F)c1 | – | galactose medium | 3 (unit not given) | – | CC50 | > 100 µM |
| O=S(=O)(c1ccc(-c2ccc3nccc(Nc4ccccn4)c3c2)cc1)N1CCOCC1 | cytotoxicity, MTT | – | 48 h | – | TC50 | > 20 µM |
| [Cl][Cd][Cl] | micronucleus | – | concentration not given, at maximum tested concentration | reference: vehicle | micronucleus frequency | 2 fold |

Some of these lines once more:
| Structure (SMILES) | assay | system | conditions | how to read | measurement | value |
| --- | --- | --- | --- | --- | --- | --- |
| N.N.[Cl][Pt][Cl] | micronucleus formation | – | – | – | lowest effective concentration | 0.8 µM |
| O=S(=O)(c1ccc(-c2ccc3nccc(Nc4ccccn4)c3c2)cc1)N1CCOCC1 | cytotoxicity, MTT | – | 48 h | – | TC50 | > 20 µM |
| CCn1nccc1Nc1ccnc2ccc(-c3ccc(S(=O)(=O)N4CCOCC4)cc3)cc12 | cytotoxicity, MTT | – | 48 h | – | TC50 | > 20 µM |
